Published values collected from several papers.
Protocols differ between the studies behind these lines. Values joined by “and” are separate records of one study, mostly repeats; a detail may differ. Numbers after ± are the reported error.
UniProt O76090, sequence (whole entry, unmodified, looked up): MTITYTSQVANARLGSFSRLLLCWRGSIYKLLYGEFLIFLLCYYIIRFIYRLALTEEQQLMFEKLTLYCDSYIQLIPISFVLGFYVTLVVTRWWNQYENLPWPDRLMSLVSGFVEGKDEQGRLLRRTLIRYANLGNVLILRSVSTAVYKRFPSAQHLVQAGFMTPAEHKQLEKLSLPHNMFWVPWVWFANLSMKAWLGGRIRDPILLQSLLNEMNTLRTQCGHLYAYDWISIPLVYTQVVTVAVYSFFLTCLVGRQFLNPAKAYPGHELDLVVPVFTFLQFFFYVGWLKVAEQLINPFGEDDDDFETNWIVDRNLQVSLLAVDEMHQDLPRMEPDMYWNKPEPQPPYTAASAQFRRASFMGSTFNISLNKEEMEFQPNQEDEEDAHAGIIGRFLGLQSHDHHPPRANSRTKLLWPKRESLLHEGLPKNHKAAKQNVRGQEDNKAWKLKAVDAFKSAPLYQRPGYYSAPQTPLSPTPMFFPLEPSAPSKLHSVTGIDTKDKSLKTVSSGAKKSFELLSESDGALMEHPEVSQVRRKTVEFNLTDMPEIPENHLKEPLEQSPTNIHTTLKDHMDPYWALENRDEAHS
UniProt Q8NER1, sequence (whole entry, looked up): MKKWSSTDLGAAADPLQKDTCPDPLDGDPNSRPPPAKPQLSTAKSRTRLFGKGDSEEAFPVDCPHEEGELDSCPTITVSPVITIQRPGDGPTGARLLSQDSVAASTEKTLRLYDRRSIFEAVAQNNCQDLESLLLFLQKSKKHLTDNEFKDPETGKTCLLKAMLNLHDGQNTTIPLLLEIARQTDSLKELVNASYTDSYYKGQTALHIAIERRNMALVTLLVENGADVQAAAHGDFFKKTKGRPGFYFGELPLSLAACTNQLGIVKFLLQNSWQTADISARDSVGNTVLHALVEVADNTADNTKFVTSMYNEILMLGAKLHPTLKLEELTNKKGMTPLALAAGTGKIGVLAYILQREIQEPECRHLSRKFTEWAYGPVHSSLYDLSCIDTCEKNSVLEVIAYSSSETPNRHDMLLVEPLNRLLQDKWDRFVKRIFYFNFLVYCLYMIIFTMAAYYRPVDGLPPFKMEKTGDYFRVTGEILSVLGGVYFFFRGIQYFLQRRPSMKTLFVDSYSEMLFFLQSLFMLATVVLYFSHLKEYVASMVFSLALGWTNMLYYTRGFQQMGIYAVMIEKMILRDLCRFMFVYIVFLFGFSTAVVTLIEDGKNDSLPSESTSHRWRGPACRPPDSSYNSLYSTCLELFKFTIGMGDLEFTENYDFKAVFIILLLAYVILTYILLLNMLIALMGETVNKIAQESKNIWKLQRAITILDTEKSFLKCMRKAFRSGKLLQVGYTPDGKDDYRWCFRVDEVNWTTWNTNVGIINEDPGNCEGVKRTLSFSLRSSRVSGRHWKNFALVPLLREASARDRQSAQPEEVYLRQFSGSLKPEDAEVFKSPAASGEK
UniProt P25440, sequence (whole entry, unmodified, looked up): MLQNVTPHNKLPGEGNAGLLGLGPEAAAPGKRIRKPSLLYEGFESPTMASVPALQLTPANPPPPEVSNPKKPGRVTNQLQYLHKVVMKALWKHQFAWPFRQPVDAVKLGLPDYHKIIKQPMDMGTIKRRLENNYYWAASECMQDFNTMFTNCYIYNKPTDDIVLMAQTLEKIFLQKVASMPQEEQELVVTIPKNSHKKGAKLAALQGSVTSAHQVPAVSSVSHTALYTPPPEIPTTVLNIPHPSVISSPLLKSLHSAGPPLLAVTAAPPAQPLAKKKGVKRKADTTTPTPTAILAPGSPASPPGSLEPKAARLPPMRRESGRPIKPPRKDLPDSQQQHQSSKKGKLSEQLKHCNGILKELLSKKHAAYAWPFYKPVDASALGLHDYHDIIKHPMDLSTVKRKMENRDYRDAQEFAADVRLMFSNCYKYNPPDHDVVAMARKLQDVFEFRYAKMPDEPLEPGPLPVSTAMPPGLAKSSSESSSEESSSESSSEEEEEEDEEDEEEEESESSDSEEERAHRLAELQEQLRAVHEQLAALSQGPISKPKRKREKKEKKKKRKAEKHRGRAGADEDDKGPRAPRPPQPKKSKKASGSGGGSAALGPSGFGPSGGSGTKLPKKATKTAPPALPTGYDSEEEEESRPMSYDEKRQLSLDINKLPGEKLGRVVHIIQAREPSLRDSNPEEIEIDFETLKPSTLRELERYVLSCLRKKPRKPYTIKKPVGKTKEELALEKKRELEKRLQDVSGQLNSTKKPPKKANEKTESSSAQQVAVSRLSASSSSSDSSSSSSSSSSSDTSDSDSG
UniProt P48729, sequence (whole entry, looked up): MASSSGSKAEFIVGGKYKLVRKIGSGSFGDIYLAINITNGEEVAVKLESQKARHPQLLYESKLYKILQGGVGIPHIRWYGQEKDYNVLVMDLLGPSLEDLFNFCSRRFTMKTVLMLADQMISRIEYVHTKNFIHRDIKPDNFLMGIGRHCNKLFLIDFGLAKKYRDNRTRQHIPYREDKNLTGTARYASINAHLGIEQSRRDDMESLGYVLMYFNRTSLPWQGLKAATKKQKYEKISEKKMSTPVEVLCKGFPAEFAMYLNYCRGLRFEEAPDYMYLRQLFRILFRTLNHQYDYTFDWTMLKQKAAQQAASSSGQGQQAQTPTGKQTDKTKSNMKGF
UniProt P11310, sequence (whole entry, looked up): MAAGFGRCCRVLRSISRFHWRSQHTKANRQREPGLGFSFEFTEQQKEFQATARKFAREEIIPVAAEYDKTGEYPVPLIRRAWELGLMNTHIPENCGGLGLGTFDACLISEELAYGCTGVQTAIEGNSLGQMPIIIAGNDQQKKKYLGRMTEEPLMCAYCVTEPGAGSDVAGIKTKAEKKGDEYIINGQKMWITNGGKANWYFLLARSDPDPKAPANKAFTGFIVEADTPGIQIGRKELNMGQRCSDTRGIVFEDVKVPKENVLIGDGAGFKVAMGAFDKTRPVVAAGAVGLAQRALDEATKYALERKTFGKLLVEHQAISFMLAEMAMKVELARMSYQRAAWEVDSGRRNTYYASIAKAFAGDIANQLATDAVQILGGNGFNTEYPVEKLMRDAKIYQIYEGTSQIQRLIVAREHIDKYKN
UniProt Q92499, sequence (whole entry, looked up): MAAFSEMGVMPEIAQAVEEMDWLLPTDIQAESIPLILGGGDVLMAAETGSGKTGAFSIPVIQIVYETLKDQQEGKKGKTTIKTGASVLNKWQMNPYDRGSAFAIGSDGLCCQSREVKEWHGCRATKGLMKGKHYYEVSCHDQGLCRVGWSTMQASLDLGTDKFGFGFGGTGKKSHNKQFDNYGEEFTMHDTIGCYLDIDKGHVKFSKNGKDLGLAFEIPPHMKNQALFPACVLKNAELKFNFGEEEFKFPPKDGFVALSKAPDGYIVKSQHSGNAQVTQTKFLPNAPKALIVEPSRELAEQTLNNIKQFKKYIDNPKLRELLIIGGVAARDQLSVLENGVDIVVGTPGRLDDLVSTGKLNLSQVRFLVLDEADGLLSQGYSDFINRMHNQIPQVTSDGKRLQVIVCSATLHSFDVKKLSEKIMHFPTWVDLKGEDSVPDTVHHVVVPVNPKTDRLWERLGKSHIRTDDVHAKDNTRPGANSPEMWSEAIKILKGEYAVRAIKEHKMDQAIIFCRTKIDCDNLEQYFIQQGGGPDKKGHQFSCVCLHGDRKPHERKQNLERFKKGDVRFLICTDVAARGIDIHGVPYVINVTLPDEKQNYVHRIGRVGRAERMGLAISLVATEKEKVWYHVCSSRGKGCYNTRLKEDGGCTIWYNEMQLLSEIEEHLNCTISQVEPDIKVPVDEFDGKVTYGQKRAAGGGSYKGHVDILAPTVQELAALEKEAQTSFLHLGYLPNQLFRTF
UniProt Q9KCC6, sequence (whole entry, looked up): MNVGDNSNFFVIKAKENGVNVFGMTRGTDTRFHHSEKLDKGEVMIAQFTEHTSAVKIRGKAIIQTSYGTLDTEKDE
UniProt P21917, sequence (whole entry, looked up): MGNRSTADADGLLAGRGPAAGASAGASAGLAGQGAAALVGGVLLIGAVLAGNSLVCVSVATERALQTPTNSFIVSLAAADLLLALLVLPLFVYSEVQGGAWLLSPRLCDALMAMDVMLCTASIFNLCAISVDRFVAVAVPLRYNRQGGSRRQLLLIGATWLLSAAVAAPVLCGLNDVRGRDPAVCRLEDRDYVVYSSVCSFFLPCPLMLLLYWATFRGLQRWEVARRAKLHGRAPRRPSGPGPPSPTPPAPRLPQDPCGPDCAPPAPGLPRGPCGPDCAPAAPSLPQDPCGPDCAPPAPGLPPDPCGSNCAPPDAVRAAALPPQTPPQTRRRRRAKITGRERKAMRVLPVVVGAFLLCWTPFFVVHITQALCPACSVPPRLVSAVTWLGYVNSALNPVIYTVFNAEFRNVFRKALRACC
UniProt Q96SW2, sequence (whole entry, looked up): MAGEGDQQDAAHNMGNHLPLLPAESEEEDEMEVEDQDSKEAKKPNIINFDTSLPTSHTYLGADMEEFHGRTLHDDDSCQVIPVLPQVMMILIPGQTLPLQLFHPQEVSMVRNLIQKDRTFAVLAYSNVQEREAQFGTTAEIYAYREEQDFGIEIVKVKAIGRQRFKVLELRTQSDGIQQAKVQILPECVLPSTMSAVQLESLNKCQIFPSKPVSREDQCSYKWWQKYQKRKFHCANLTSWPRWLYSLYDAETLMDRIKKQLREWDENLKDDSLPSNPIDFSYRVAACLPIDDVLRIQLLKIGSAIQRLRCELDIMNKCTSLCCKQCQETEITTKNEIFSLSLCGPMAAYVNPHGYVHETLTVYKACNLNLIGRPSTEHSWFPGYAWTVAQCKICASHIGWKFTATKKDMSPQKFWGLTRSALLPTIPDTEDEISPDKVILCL

The current density of `Nc1ccc(C(=O)O)cc1` is reported as -0.07 pA/pF and 0.04 pA/pF and 0.01 pA/pF and 0.03 pA/pF and 0.02 pA/pF and -0.03 pA/pF (BEST1, with wild-type BEST1 (Homo sapiens, UniProt O76090, A10T); whole-cell patch clamp; HEK293 co-expressing WT and A10T mutant; concentration not given, membrane potential 0 mV).
`O=c1nc(SCc2cc(F)cc(C(F)(F)F)c2)nc(SCc2ccc3nc(OCCN4CCOCC4)ccc3c2)[nH]1` gave a decatenated DNA of 1.6% (DNA topoisomerase 2-alpha (TOP2A, Homo sapiens, UniProt P11388); decatenation; 31.25 µM, replicate 1).
For `Nc1ncnc2c1ncn2[C@@H]1O[C@H](COP(=O)(O)OP(=O)(O)OP(=O)(O)O)[C@@H](O)[C@H]1O`, the Hill slope was 1.73 (P2X purinoceptor 2 (P2RX2, Homo sapiens, UniProt Q9UBL9, D148K/E146K/L150K); ion current, agonist, two-electrode voltage clamp; Xenopus oocytes).
`Clc1cncc(OC[C@H]2CN(CCN3CCc4ccccc43)CCO2)c1` has an inhibition of 66.2% (D(4) dopamine receptor (DRD4, Homo sapiens, UniProt P21917); radioligand binding; concentration not given, together with: [3H]N-methylspiperone).
`CCCCCCCC(=O)SCCNC(=O)CCNC(=O)[C@H](O)C(C)(C)COP(=O)(O)OP(=O)(O)OC[C@H]1O[C@@H](n2cnc3c(N)ncnc32)[C@H](O)[C@@H]1OP(=O)(O)O` has an apparent Kd of 120 nM (Medium-chain specific acyl-CoA dehydrogenase, mitochondrial (ACADM, Homo sapiens, UniProt P11310); charge-transfer complex formation, anaerobic spectrophotometric titration).
Under “degradation rate constant”, `O=C1CCC(N2Cc3cc(NC(=O)c4cccc(C(F)(F)F)c4)ccc3C2=O)C(=O)N1` (stereo not drawn) is recorded as 1.65 h⁻¹ (Cereblon/Casein kinase I alpha (CSNK1A1/CRBN, Homo sapiens, UniProt P48729+Q96SW2); degrader, live-cell HiBiT kinetic; HEK293 LgBiT; 10 µM).
`Nc1nc2c(ncn2[C@@H]2O[C@@H]3COP(=O)(O)O[C@H]4[C@@H](O)[C@H](n5cnc6c(=O)[nH]c(N)nc65)O[C@@H]4COP(=O)(O)O[C@H]3[C@H]2O)c(=O)[nH]1` has an association constant of 46500 ± 5790 M⁻¹ (Cell cycle histidine kinase CckA, CA domain (Caulobacter vibrioides, UniProt Q9X688); binding, ITC; together with: ADP 5 mM).
For `c1ccc(-c2n[nH]cc2-c2ccnc3ccccc23)nc1`, “log2 fold change” read 0.823 (Mitogen-activated protein kinase HOG1 (HOG1, Candida albicans, UniProt Q92207); MIB/MS competition binding; Candida albicans cell lysate; 10 µM; reference: DMSO, lower = stronger binding).
For `COc1cc(CNC(=O)CCCC/C=C/C(C)C)ccc1O`, the calcium response was 9.69 a.u. and 7.06 a.u. and 3.9 a.u. and 9.57 a.u. (Transient receptor potential cation channel subfamily V member 1 (TRPV1, Homo sapiens, UniProt Q8NER1); channel activation, FLIPR calcium; HEK293T; 0.0274 µM; higher = more activation).
For `COCCC(=O)N1CCC(Oc2ccccc2)C1` (stereo not drawn), “log fold enrichment” read 0.108 (ATP-dependent RNA helicase DDX1 (Homo sapiens, UniProt Q92499); binding, affinity selection mass spectrometry; reference: other proteins in batch).
For `N[C@@H](Cc1c[nH]c2ccccc12)C(=O)O`, the binding stoichiometry was 11.4 ± 0.2 (Transcription attenuation protein MtrB (mtrB, Halalkalibacterium halodurans, UniProt Q9KCC6); isothermal titration calorimetry; concentration not given, 25 °C, site 2 two-site model).
For `CC(=O)N[C@H](C(=O)N1C[C@H](O)C[C@H]1C(=O)NCc1ccc(-c2scnc2C)cc1)C(C)(C)SCCCCCCNC(=O)C[C@@H]1N=C(c2ccc(Cl)cc2)c2c(sc(C)c2C)-n2c(C)nnc21`, the ΔG was -9.49 ± 0.07 kcal/mol (Bromodomain-containing protein 2, BD1 (BRD2, Homo sapiens, UniProt P25440); binding, ITC; 25 °C, compound in cell, protein in syringe).

Excerpt of the above:
`Nc1nc2c(ncn2[C@@H]2O[C@@H]3COP(=O)(O)O[C@H]4[C@@H](O)[C@H](n5cnc6c(=O)[nH]c(N)nc65)O[C@@H]4COP(=O)(O)O[C@H]3[C@H]2O)c(=O)[nH]1` has an association constant of 46500 ± 5790 M⁻¹ (Cell cycle histidine kinase CckA, CA domain (Caulobacter vibrioides, UniProt Q9X688); binding, ITC; together with: ADP 5 mM).
For `c1ccc(-c2n[nH]cc2-c2ccnc3ccccc23)nc1`, “log2 fold change” read 0.823 (Mitogen-activated protein kinase HOG1 (HOG1, Candida albicans, UniProt Q92207); MIB/MS competition binding; Candida albicans cell lysate; 10 µM; reference: DMSO, lower = stronger binding).
